Experimental data from different studies.
A part holds a random share of what one study measured. Changes are numbered by the printed parent chain.

Sample 1
Target: CCNB3, cyclin fold, Cln2 fusion (human)
Technique: yeast growth competition, sequencing
Medium: yeast
Setting: weak parent motif
Baseline: not given
Direction: higher = stronger binding
Starting sequence: BORA docking peptide (human); SSLRRKLFLDGNG; partner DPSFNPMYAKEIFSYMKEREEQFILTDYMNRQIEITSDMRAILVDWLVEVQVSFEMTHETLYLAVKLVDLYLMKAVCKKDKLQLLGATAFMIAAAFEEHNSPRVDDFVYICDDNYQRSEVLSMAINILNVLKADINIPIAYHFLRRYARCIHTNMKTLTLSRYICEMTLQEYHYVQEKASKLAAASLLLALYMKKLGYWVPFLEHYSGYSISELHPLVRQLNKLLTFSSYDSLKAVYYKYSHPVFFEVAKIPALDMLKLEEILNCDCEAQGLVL
Substitution | normalised enrichment score
SSLRAKLFLDGNG [R5A] | 0.352
SSLRKKLFLDGNG [R5K] | 0.615
SSLRRKLFADGNG [L9A] | 0.0454
SSLRRKLFLDANG [G11A] | 0.429
SSLRRKLALDGNG [F8A] | 0.365
SSLRKKLFFDGNG [R5K L9F] | 0.752
SSLRRKLFLDGNA [G13A] | 0.0673
SSLRRKLLLDGNG [F8L] | 0.433
SSLRRKAFLDGNG [L7A] | -0.0252
SSLRAKAFLDGNG [R5A L7A] | -0.202
SSARRKLFLDGNG [L3A] | 0.802

Sample 2
Target: RNA binding protein fox-1 homolog 2, RRM domain, GST-SBP tag (RBFOX2, Homo sapiens, UniProt O43251-10, residues 100-194)
Technique: RNA Bind-n-Seq
Form: RNA
Medium: in vitro
Concentration: 365 nM
Setting: natural RNA segment, single round, ends assumed
Baseline: no-protein control
Direction: higher = stronger binding
Shared flanks, not repeated: GGGAGUUCUACAGUCCGACGAUC … UGGAAUUCUCGGGUGCCAA
Residues (chain): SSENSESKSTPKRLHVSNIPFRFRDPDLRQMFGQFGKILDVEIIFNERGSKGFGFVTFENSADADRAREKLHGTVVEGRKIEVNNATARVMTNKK
Oligonucleotide | RBNS enrichment (R)
CCGUCCUUUCCAAUACGAUUUUCUGUUGCACCUUGUAGUGGAUUCUGCAUAUCAUCUUUCCCACCUAAAAAUGUCUGAAUGCUUACACAAAUAAAUUUUAUAACACGCUU | 1.18
GACACGUAGCAGCUUAGACUAAGGCCAUUAUUGUACUUGCCUUAUUAGAGUGUCUUUCCACGGAGCCACUCCUCUGACUCAGGGCUCCUGGGUUUUGUAUUCUCUGAGCU | 0.601
UACUUCUUGCUGAUCAUGCGUUGUGGGGGUGUGGGGGGACCCAUGCAGAGGAGGUUCUCUUCAUAAGGGGGACUCACAGAAGGACCUUCCAGUGAAUGUUUGACCUAGGG | 0.447
CAGGGUGGCGCAGCUUUCUGUGUGAUGCAGAUGUGUCCUGGUUUCGGCAGCGUAGCCAGCUGCUGCUUGAGGCCAUGGCUCGUCCCCGGAGUUGGGGGUACCCGUUGCAG | 1.19
UGUAGAUUGGUGUGAAUUGCUAAGGGAAAAACCUUAUGCAGAGAAAAGUUUUUGACUGGAAAUACACUGUUUUGCAUCAAGCUGGAGUACUGGAUGGAAAACUCUACAAU | 1.37
UAACCUCUUUUAUAAAAAUUUUCCUAGAAGGUUUAUACUGCCUUCUUGCUUUAAAGCAAUUGGUCUAAAAUAUAUGUAAUCGUCUUAAUUAAAAAGUUGCAGUAGGGUUG | 0.542
CAACUAAAAUAUCAUAGUUCUGUGGUAGACAUUGUUUUAUAAUGAAAUAACUGCAACUAGAGAAAACUGUAUAAAAACAUUAAAUUGUCAGUAUUUUUGUAAGGUUCCAU | 0.348
GCGUGUGCGUGGAGCCACAGUACCUCCUACACUCCCUGAGGCUCCGACUUGGGGAAAUAAAUUUCCCACCUCGUCGGCCCCAGCUCUGUUUCUGCCACUCCUGUCCAAGC | 0.756

Sample 3
Target: Histone acetyltransferase KAT6A, winged helix 2, GST fusion (KAT6A, Homo sapiens, UniProt Q92794, residues 85-181)
Technique: protein binding microarray
Form: double-stranded DNA, one strand shown
Medium: in vitro
Concentration: not given
Setting: 8-mer, flanks averaged, mean of 2 arrays, mostly near background
Baseline: not given
Direction: higher = stronger binding
Target sequence (chain): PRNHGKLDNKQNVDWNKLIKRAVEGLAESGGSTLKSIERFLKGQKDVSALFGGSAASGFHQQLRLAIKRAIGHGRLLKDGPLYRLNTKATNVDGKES
Oligonucleotide | E-score
ATAACGGG | -0.0565
ACCCAGGG | 0.0209
CACTGATC | -0.0476
ACAACGGA | 0.071
GTCTGTTA | -0.0845
AGGAGCGA | 0.109
AAATCAAA | 0.00617
ATCTATAG | -0.187
ACAACGAA | 0.0435
GAGTCCCA | -0.0277
CACAGAGC | 0.1
AGTGCGGA | 0.298
ACGACAAA | 0.177
AACACAGA | 0.0868
ATCCTGAG | 0.0173
ATTGATAG | 0.0794
ACGATCCT | -0.0205
AGGATGAA | -0.00541
ACTTCCAT | 0.00324
CACTTATC | -0.0844
GTAAATAA | -0.0628

Sample 4
Target: OGT, full length, His-tagged (human)
Technique: phage display, sequencing
Medium: in vitro
Concentration: 1 µg OGT
Setting: single substitutions, 15-mer displayed peptide, unchanged parent 16.7
Baseline: input library
Direction: higher = stronger binding
Starting sequence: peptide; NSEYMPQYQIIFAHQ
Substitution | fold enrichment
A13M | 13.6 fold
Y4S | 0.827 fold
Q15V | 17 fold
A13F | 6.98 fold
H14I | 11.3 fold
Q9S | 3.76 fold
Q15Y | 11.7 fold
A13H | 18.3 fold
M5R | 9.3 fold
E3D | 19.2 fold
N1W | 14.3 fold
E3G | 12.9 fold
F12Q | 0.261 fold
H14E | 7.25 fold
S2V | 7.18 fold
A13R | 29.2 fold
